Published values gathered from unrelated publications.
Compare with care: the assays were run in different laboratories. Several values in a cell are separate wells, animals, samples, runs or records. Numbers after ± are the reported error. In brackets after ≈: the same amount, converted by molar mass.

SMILES | organism | test | system | conditions | scale | endpoint | result
Cc1cccc(O)c1C(=O)O | Tetrahymena pyriformis and Klebsiella pneumoniae | virulence in co-culture | – | – | – | IC50 | 10100 nM
COCCNCC(O)Cn1c2ccc(Cl)cc2c2cc(Cl)ccc21 (centres unmarked) | Plasmodium yoelii | oxygen consumption | 17XL | 2 µM | – | inhibition | 10%
Cc1ccc(N(c2ccc(NC(=O)CN(C)c3ccccc3N3CCCC3=O)cc2)C(C)C)cc1 | Plasmodium falciparum | – | Dd2-B2 | 60 days | – | minimum inoculum of resistance | 7.6 log10 parasites
CSc1nc2nnnc(O)c2s1 | Tetrahymena pyriformis and Klebsiella pneumoniae | virulence in co-culture | – | – | – | IC50 | 240 nM
Nc1ncnc2c1ncn2[C@@H]1O[C@@H]2COP(=O)(O)O[C@H]3[C@@H](O)[C@H](n4cnc5c(=O)[nH]cnc54)O[C@@H]3COP(=O)(O)O[C@H]2[C@H]1O | West Nile virus | RNA sequencing Reactome analysis, measured: G1/S Transition (R-HSA-69206) | HFF-1 | concentration not given, upregulated pathways, together with: West Nile virus infection | reference: WNV-infected without compound | fold enrichment | 3.07
O=[N+]([O-])c1ccc(C2=[N+]([O-])c3ccccc3N3CCN=C23)cc1 | Bacteroides fragilis | – | – | – | – | MIC90 | ≤ 0.06 µg/mL
O=C(N/N=C/c1ccc2ccccc2c1)c1ccc(O)c(O)c1 | Tetrahymena pyriformis and Klebsiella pneumoniae | virulence in co-culture | – | – | – | IC50 | 6270 nM
CCCCc1c([N+](=O)[O-])oc2ccc3ccccc3c12 | Klebsiella aerogenes | REMA | – | – | – | MIC90 | > 32 µg/mL
CC1NC(=O)C(C(=O)NC(C(=O)NC2C(=O)N3C2SC(C)(C)C3C(=O)O)c2ccccc2)=C1O (centres unmarked) | Escherichia coli | broth microdilution | Keio mutant JW5086-3 | 18 h, ferrienterobactin permease gene | – | MIC | 50 µg/mL (≈ 102 µM)
Nc1c([N+](=O)[O-])oc2ccc3ccccc3c12 | Klebsiella aerogenes | REMA | – | – | – | MIC90 | > 32 µg/mL
CSCC[C@H](NC(=O)[C@H](CCCCN)NC(=O)[C@H](CCSC)NC(=O)[C@H](CCCCN)NC(=O)[C@H](CC(C)C)NC(=O)[C@H](CC(C)C)NC(=O)[C@H](CCCNC(=N)N)NC(=O)[C@H](CC(=O)O)NC(=O)[C@H](CCCCN)NC(=O)[C@H](Cc1c[nH]c2ccccc12)NC(=O)[C@H](Cc1ccc(O)cc1)NC(=O)[C@H](Cc1ccccc1)NC(=O)[C@H](CCCNC(=N)N)NC(=O)[C@@H]1CCCN1C(=O)[C@@H](NC(=O)[C@H](CCCNC(=N)N)NC(=O)[C@@H](N)CO)C(C)C)C(=O)N[C@@H](C)C(=O)O | Staphylococcus haemolyticus | – | – | – | – | MBC | 64 µg/mL (≈ 27.5 µM)
CCC1(C)CC(OC(=O)CSc2nnc(N)[nH]2)C2(C)C(C)CCC3(CCC(=O)C32)C(C)C1O (centres unmarked) | Tetrahymena pyriformis and Klebsiella pneumoniae | virulence in co-culture | – | – | – | IC50 | 14000 nM
CC1=C(C)/C(=C/c2cc(Cc3ccc(OC(F)(F)F)cc3)c(C)[nH]2)N=C1c1ccc[nH]1.Cl | Plasmodium yoelii | parasitaemia | mouse | 4-day treatment, parasitaemia day 5 | – | ED90 | 4.21 mg/kg/day
COc1cccc(C(=O)NN(C(=O)c2cc(C)cc(C)c2)C(C)(C)C)c1C | Anopheles gambiae | – | G3, lab susceptible | topical, 0.4 % | reference: control | adult lifespan | decreased
CC[C@H](C)C[C@H](C)CCCCCCCCC(=O)N[C@H]1C[C@@H](O)[C@@H](NCCN)NC(=O)[C@@H]2[C@@H](O)CCN2C(=O)[C@H]([C@H](O)CCN)NC(=O)[C@H]([C@H](O)[C@@H](O)c2ccc(O)cc2)NC(=O)[C@@H]2C[C@@H](O)CN2C(=O)[C@H]([C@@H](C)O)NC1=O | Kluyveromyces marxianus | broth dilution | ATCC 204093 | 48 h, 37 °C | – | MFC | 0.25 µg/mL (≈ 0.229 µM)
CC1(C(=O)O)CCC(C(=O)Nc2ccc(Nc3ccccc3)cc2)C1(C)C (centres unmarked) | Tetrahymena pyriformis and Klebsiella pneumoniae | virulence in co-culture | – | – | – | IC50 | 580 nM
N#CCNC(=O)c1cnccc1C(F)(F)F | Aedes aegypti | – | adult females | topical, 12.5 nmol/mosquito, 24 h | – | flightless or dead mosquitoes | 58.7%
Cc1[nH]c(/C=C2\N=C(c3ccc[nH]3)C=C2OC(C)C)cc1Cc1ccc(OC(F)(F)F)cc1.Cl | Plasmodium yoelii | parasitaemia | mouse | 4-day treatment, parasitaemia day 5 | – | ED90 | 1.43 mg/kg/day

SMILES | organism | test | system | conditions | scale | endpoint | result
COC(=O)N[C@H](C(=O)N1CCC[C@H]1c1ncc(-c2ccc(-c3ccc(-c4cnc([C@@H]5CCCN5C(=O)[C@@H](NC(=O)OC)C(C)C)[nH]4)cc3)cc2)[nH]1)C(C)C | Hepatitis C virus | – | replicon cells | 50% effect level, together with: IFN-alpha, ratio 2.5:1 | – | combination index | 0.67
COC1=CC(c2ccc[nH]2)=N/C1=C\c1cc(-c2ccc(OC(F)(F)F)cc2)c(C)[nH]1.Cl | Plasmodium yoelii | – | CF1 mice | oral, 25 mg/kg daily for 4 days, day 5 | reference: vehicle | parasitaemia reduction | 100%
CC1(C)SC2C(NC(=O)C(NC(=O)C3=C(O)C4(CC4)NC3=O)c3ccccc3)C(=O)N2C1C(=O)O (centres unmarked) | Escherichia coli | broth microdilution | Keio mutant JW0146-2 | 18 h, ferric hydroxamate uptake gene | – | MIC | 50 µg/mL (≈ 99.9 µM)
O=[N+]([O-])c1cc2c(ccc3c4cc([N+](=O)[O-])oc4ccc23)o1 | Klebsiella aerogenes | REMA | – | – | – | MIC90 | > 32 µg/mL
Cn1c(=O)ccc2ccc(F)c(CCNC[C@H]3CN(c4cnc5c(n4)NC(=O)CO5)C(=O)O3)c21 | Salmonella sp. | – | – | – | – | MIC50 | 0.12 µg/mL (≈ 0.256 µM)
CNCCN(C)C(=O)Oc1c(Br)c(C)nc(C)c1-c1ccc(Oc2ccc(OC(F)(F)F)cc2)cc1 | Plasmodium yoelii | – | 17XL | 384-well | – | IC50 | 229 ± 113 nM
CC[C@H](C)[C@H](NC(=O)[C@H](C)NC(=O)[C@H](CCCCN)NC(=O)[C@H](CC(C)C)NC(=O)[C@H](C)NC(=O)[C@@H](NC(=O)[C@H](Cc1c[nH]cn1)NC(=O)[C@H](CC(C)C)NC(=O)[C@@H](NC(=O)[C@@H](NC(=O)[C@H](CCCCN)NC(=O)[C@H](C)NC(=O)[C@H](C)NC(=O)[C@H](CO)NC(=O)[C@H](CCCCN)NC(=O)[C@H](Cc1ccccc1)NC(=O)[C@@H](NC(=O)[C@H](CCCCN)NC(=O)[C@H](CC(C)C)NC(=O)[C@H](Cc1ccccc1)NC(=O)[C@H](CO)NC(=O)[C@H](CCCCN)NC(=O)[C@H](Cc1c[nH]c2ccccc12)NC(=O)[C@H](CCCCN)NC(C)=O)[C@@H](C)O)[C@@H](C)O)C(C)C)[C@@H](C)O)C(=O)N[C@@H](CO)C(=O)N[C@@H](CO)C(N)=O | Enterococcus faecalis | – | ATCC 29212 | – | – | MIC90 | 32 µg/mL (≈ 10.9 µM)
CN[C@H](CC(C)C)C(=O)N[C@H]1C(=O)N[C@@H](CC(N)=O)C(=O)N[C@H]2C(=O)N[C@H]3C(=O)N[C@H](C(=O)N[C@H](C(=O)O)c4cc(O)cc(O)c4-c4cc3ccc4O)[C@H](O)c3ccc(c(Cl)c3)Oc3cc2cc(c3O[C@@H]2O[C@H](CO)[C@@H](O)[C@H](O)[C@H]2O[C@H]2C[C@](C)(N)[C@H](O)[C@H](C)O2)Oc2ccc(cc2Cl)[C@H]1O | Enterococcus faecalis | broth microdilution | VanA vancomycin-resistant clinical isolates | – | – | MIC range | > 32 µg/mL
COc1cc2ccc3oc([N+](=O)[O-])cc3c2cc1OC | Mycolicibacterium aurum | REMA | ATCC 23366 | – | – | MIC90 | 1 µg/mL (≈ 3.66 µM)
O=C(Nc1ccccc1O)c1ccc(Oc2cccc(C(=O)Nc3ccccc3O)c2)cc1 | Plasmodium yoelii | oxygen consumption | 17XL | 2 µM | – | inhibition | 4%
CCCCCCn1nnc2c1CCN(c1ccc(F)cc1)C2 | human adenovirus 2 | viral replication | HEL | – | – | EC50 | > 100000 nM
CN(C)[C@@H]1C(O)=C(C(N)=O)C(=O)[C@@]2(O)C(O)=C3C(=O)c4c(O)cccc4[C@@](C)(O)[C@H]3C[C@@H]12 | Acinetobacter baumannii | – | 19606, biofilm | 25 µg/mL, without HNP1 | – | survival | 49.8% and 65.7% and 64.6% and 59.3% and 60.8% and 55.1%
Cc1ncc([N+](=O)[O-])n1CCO | Bacteroides fragilis | – | – | – | – | MIC90 | 1 µg/mL (≈ 5.84 µM)
COC1=CC(c2ccc[nH]2)=N/C1=C\c1cc(Cc2ccc(Cl)cc2)c(C)[nH]1.Cl | Plasmodium yoelii | – | CF1 mice | oral, 25 mg/kg daily for 4 days, day 5 | reference: vehicle | parasitaemia reduction | 100%
COc1cnc(OC)n2nc(NS(=O)(=O)c3c(OCC(F)F)cccc3C(F)(F)F)nc12 | Echinochloa crus-galli | fresh weight | – | 150 g ai/ha, post-emergence treatment | – | inhibition | 91.3% and 92.7% and 92.3%
COc1ccc(-c2nnc(NC(=O)c3cccc([N+](=O)[O-])c3)s2)cc1OC | Tetrahymena pyriformis and Klebsiella pneumoniae | virulence in co-culture | – | – | – | IC50 | 1770 nM
CS(=O)(=O)CCCn1c(Cn2c(=O)n(CC(F)(F)F)c3ccncc32)cc2cc(Cl)ccc21 | respiratory syncytial virus | RT-qPCR | hospitalized infants 1-24 months, nasal swab | oral, 2, 1.5 or 1 mg/kg daily, day 28, low dose by age cohort | reference: baseline | LS mean viral load change | -5.1 log10 copies/mL
